Results pooled from the literature.
Each line is one published result; not all experiments were run side by side. Values joined by “and” are separate records of one study, mostly repeats; a detail may differ. ± gives the spread as reported.
Chain of UniProt P11712 (whole entry, looked up): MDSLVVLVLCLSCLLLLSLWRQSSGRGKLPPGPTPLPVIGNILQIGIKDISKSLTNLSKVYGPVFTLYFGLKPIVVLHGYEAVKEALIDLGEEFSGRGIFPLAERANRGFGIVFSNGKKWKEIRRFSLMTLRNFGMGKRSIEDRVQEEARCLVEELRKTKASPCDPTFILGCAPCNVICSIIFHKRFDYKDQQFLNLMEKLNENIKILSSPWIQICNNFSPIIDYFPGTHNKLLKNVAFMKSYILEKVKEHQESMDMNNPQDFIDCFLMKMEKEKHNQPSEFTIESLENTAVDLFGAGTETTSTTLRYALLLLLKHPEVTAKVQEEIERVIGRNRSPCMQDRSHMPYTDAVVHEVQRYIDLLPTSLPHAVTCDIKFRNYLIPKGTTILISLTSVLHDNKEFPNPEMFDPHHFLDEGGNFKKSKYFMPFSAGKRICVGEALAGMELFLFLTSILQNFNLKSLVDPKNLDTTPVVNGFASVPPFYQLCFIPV
Chain of UniProt P45984 (whole entry, looked up): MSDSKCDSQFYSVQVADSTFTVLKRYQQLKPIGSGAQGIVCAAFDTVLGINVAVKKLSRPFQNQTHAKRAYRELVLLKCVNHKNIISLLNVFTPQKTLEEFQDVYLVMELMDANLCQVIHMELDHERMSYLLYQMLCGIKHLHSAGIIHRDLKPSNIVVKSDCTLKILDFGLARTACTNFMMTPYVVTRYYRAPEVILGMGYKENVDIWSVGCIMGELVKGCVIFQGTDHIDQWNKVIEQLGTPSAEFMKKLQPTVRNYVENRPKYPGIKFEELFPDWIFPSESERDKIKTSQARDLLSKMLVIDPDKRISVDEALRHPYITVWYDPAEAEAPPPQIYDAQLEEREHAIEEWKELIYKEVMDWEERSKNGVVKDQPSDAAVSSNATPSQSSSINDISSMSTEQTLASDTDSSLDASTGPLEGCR

SMILES	tested on	assay	system	conditions	how to read	measurement	value
N#C[C@@H]1CC(F)(F)CN1C(=O)CNC(=O)c1ccnc2c(NC(=O)[C@H](CCCCNC(=O)CCOCCOCCOCCOCCOCCOCCNC(=O)CN3CCN(CC(=O)[O-])CCN(CC(=O)[O-])CCN(CC(=O)[O-])CC3)NC(=O)CCCc3ccc(I)cc3)cccc12.[177Lu+3]	U-87 MG tumour model		host not given, tumour	24 h, tumour-bearing		tracer uptake	22.2 %ID/g
CCCCCCCCCCCCCCCC(=O)N[C@@H](CCCCN)C(=O)N[C@@H](CCCCN)C(=O)N[C@@H](CO)C(=O)N[C@@H](CCCNC(=N)N)C(=O)N[C@@H](C)C(=O)N[C@@H](CC(C)C)C(=O)N[C@@H](Cc1ccccc1)C(N)=O			human patients, plasma	intravenous, 0.3 mg/kg over 2 h		terminal half-life	72 min
C/C(N)=N/C(=N\S(=O)(=O)c1ccc(C(F)(F)F)cc1)N1C[C@H](c2ccccc2)C(c2ccc(Cl)cc2)=N1			male C57BL/6 mouse, lung	oral, 10 mg/kg		Tmax	1 h
C=CC(=O)Nc1cc(Nc2nccc(-c3c[nH]c4ccccc34)n2)c(OC)cc1N(C)CCN(C)C		storage stability	human plasma	10 d, -80 °C, HQC level		recovery	102%
CN(Cc1cc(C2CC2)on1)C(=O)c1cccc(-c2ccc(F)cc2)c1			male ICR/CD-1 mouse, liver microsomes	2 µM, 5 min, pH 7.5, without ABT		remaining compound	64.5%
Cc1nn(-c2cccc(N)c2)c(=O)c2cnc(Nc3ccc(N4CCNCC4)cc3)nc12	Mitogen-activated protein kinase 9 (MAPK9, Homo sapiens, UniProt P45984)	kinase activity, inhibitor, SelectScreen kinase profiling				IC50	1380 nM
Cc1ncsc1-c1ccc(C(C)NC(=O)C2CC(O)CN2C(=O)C(NC(=O)CCCCCCCCCCN2CCCC(Nc3ncc(Cl)c(Nc4ccccc4S(=O)(=O)C(C)C)n3)C2)C(C)(C)C)cc1 (stereo not drawn)	22Rv1	RNA-seq, refers to: RGS14 mRNA		concentration not given	relative to: DMSO	log2 fold change	-1.37
Nc1ncc(-c2cc(-c3cnn(CC(F)(F)F)c3)ncc2F)nc1C(=O)NC1CNCC(F)C1 (stereo not drawn)	FLT3(ITD)	KINOMEscan competition binding		1 µM	relative to: DMSO control	remaining binding	76%
CC[C@H](C)[C@@H]1NC(=O)[C@H](Cc2ccc(O)cc2)NC(=O)CCCSC[C@@H](C(=O)N(CC(=O)N[C@@H](CC(C)C)C(=O)NCC(N)=O)Cc2ccc(F)cc2)NC(=O)[C@H](CC(N)=O)NC(=O)[C@H](CCC(N)=O)NC1=O			human	intranasal, 200 µg single		drug-related dysgeusia	33%
O=C(Nc1cnccc1-c1ccc([18F])cc1)c1ccnc(NC(=O)C2CC2)c1			FVB/NJ mice (both sexes), cortex	intravenous, dose not given, 120 min		SUV	0.05
O=C1c2sc(-c3ccc(N4CCC(F)C4)nc3F)nc2CCN1c1cccnc1 (stereo not drawn)			CD1 mouse, plasma	i.v., dose not given, 0.033 h		concentration	469 ng/mL and 397 ng/mL and 526 ng/mL
Cc1nc(N)nc2c1C(=O)N[C@@H](c1ccc(F)cc1-c1cccc(O[11CH3])n1)C2		ex vivo biodistribution	healthy mice, lungs	60 min post-injection, baseline, vehicle pre-treatment		tracer uptake	2 ± 0.4 %ID
O=C(Nc1cnccc1-c1ccc([18F])nc1)c1ccnc(NC(=O)C2CC2)c1		ex vivo gamma counting	GSK-3β transgenic mice, early-stage, cerebellum	intravenous, 120 min, mean, no P-gp inhibitor		SUV	0.023
CNc1cc(N)c(C(N)=O)c[n+]1C		substrate, refers to: methylated product	rats, plasma	oral, 30 mg/kg, 4.00 h		plasma concentration of product	0.173 µM and 0.195 µM
COC1CN([C@H]2CC[C@H]([C@@]3(C)Oc4c(Cl)cc(C(=O)NCc5c(SC)cc(C)[nH]c5=O)c(C)c4O3)CC2)C1		RNA-seq, refers to: MAST4 mouse homolog	mouse, HT-1376 xenograft, whole blood	dose not given	relative to: vehicle	log2 fold change	0.318
CCN(CC)CC#CCNc1ccnc2cc(Cl)ccc12	Salmonella typhimurium	mini-Ames test	TA1535	250.0 µg/well, without S9		revertants per well	2
Cc1ccc(OCC(=O)N(Cc2cccs2)c2ccn[nH]2)cc1			pooled dog liver microsomes	10 µM, 60 min, without NADPH	relative to: time 0	remaining compound	88%
COc1ccc(Nc2nc(Nc3ccc(OCCOCCOCC[18F])cc3)ncc2Br)cc1			ICR mice, S180 tumour	intravenous, 370 kBq, 60 min	relative to: tumour over blood	uptake ratio	1.26
C=C(NC(=O)c1csc(-c2nc3c(cc2O)-c2nc(cs2)C(=O)NC(C(C)O)C(=O)NC(=C(C)OC)c2nc(cs2)C(=O)NC2c4nc(cs4)C(=O)NC(COC(=O)c4c5c6c(cccc6n4O)COC(=O)C(OC4CC(C)(O)C(N(C)C)C(C)O4)C2OC5)c2nc-3cs2)n1)C(N)=O (stereo not drawn)			Sprague-Dawley rat, female, plasma	intravenous infusion, 18 mg/kg single dose		clearance	51.4 mL/min/kg
CC(C)OCCOCc1ccc(OCC(O)CN(N=O)C(C)C)cc1 (stereo not drawn)	Salmonella typhimurium	Ames test	TA1535	50 µg/plate, 30 % hamster S9	relative to: solvent control	revertant fold increase	2.3 fold
CC[C@H](C)[C@H](NC(=O)[C@H](Cc1ccc(O)cc1)NC(=O)[C@@H](NC(=O)[C@H](CCCNC(=N)N)NC(=O)[C@@H](N)CC(=O)O)C(C)C)C(=O)N[C@@H](Cc1c[nH]cn1)C(=O)N1CCC[C@H]1C(=O)O		LC-MS/MS	Sprague-Dawley rat, both sexes, plasma	subcutaneous, 10 mg/kg/day, day 0, 1.5 h, 90 min		plasma concentration	2.91 ng/mL
Cc1cc(-c2ccc(C(=O)[C@@H]3CCCC[C@H]3C(=O)Nc3cnn4c3C(=O)NCC4)cc2)[nH]n1			human, urine	oral, 200 mg, 0-216 h	relative to: dose	cumulative radioactivity recovery	6.33% and 6.8% and 5.62% and 6.73% and 4.93% and 4.97%
CCCCN1C(=O)c2cccc3c(NCCCCCCN4CCOCC4)ccc(c23)C1=O			chloroform			fluorescence quantum yield	1.17
CNC(=O)C1CCCN(C(=O)C2CC3CCC2N3C(=O)[C@@H]2C[C@@H](O)CN2C(=O)NCc2cccc(Cl)c2F)C1 (mixture of isomers)	Cytochrome P450 2C9 (CYP2C9, Homo sapiens, UniProt P11712)	preincubation without NADPH	human	1.85 µM	relative to: negative control	remaining activity	93.5%

Some of these lines once more:
SMILES	tested on	assay	system	conditions	how to read	measurement	value
CC[C@H](C)[C@H](NC(=O)[C@H](Cc1ccc(O)cc1)NC(=O)[C@@H](NC(=O)[C@H](CCCNC(=N)N)NC(=O)[C@@H](N)CC(=O)O)C(C)C)C(=O)N[C@@H](Cc1c[nH]cn1)C(=O)N1CCC[C@H]1C(=O)O		LC-MS/MS	Sprague-Dawley rat, both sexes, plasma	subcutaneous, 10 mg/kg/day, day 0, 1.5 h, 90 min		plasma concentration	2.91 ng/mL
O=C1c2sc(-c3ccc(N4CCC(F)C4)nc3F)nc2CCN1c1cccnc1 (stereo not drawn)			CD1 mouse, plasma	i.v., dose not given, 0.033 h		concentration	469 ng/mL and 397 ng/mL and 526 ng/mL
C=CC(=O)Nc1cc(Nc2nccc(-c3c[nH]c4ccccc34)n2)c(OC)cc1N(C)CCN(C)C		storage stability	human plasma	10 d, -80 °C, HQC level		recovery	102%
